Measurements gathered from unrelated publications.
Each line is one published result; not all experiments were run side by side. “And” joins repeats or separate records; there may be more than shown. ± marks the error that the study gave.
Sequence of UniProt Q96KB5 (whole entry, looked up): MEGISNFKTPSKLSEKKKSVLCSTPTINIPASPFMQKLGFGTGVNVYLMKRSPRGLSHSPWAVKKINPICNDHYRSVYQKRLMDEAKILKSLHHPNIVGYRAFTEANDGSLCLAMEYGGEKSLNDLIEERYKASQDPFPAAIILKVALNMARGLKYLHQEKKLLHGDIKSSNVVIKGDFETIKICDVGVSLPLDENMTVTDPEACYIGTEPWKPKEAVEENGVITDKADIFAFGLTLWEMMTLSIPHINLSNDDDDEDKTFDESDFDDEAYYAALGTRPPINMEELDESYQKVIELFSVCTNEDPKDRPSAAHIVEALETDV
Sequence of UniProt Q9Y6W6 (whole entry, looked up): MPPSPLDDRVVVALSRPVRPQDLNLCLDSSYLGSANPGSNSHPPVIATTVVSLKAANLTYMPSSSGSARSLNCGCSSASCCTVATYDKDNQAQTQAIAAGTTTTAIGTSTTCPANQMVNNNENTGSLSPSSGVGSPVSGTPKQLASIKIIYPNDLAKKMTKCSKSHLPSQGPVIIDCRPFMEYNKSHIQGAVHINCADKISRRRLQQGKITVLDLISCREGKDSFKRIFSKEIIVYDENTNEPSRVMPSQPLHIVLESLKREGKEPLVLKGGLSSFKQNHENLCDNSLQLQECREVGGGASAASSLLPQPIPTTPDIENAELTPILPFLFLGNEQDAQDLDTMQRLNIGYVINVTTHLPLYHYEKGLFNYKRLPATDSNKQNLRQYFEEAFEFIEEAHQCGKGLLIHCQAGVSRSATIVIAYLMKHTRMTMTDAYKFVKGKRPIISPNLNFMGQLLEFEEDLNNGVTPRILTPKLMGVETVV
Sequence of UniProt Q9H1Y3 (whole entry, looked up): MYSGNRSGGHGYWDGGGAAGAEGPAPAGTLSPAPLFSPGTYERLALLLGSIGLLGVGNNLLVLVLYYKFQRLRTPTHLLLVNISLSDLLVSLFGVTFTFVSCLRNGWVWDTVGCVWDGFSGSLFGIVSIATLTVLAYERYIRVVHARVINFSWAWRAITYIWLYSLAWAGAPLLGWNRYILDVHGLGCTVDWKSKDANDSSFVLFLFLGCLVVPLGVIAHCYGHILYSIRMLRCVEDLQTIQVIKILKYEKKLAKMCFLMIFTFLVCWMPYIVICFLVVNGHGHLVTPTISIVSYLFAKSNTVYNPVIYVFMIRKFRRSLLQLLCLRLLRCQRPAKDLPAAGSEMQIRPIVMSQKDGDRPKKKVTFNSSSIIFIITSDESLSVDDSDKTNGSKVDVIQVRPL
Sequence of UniProt Q13310 (whole entry, looked up): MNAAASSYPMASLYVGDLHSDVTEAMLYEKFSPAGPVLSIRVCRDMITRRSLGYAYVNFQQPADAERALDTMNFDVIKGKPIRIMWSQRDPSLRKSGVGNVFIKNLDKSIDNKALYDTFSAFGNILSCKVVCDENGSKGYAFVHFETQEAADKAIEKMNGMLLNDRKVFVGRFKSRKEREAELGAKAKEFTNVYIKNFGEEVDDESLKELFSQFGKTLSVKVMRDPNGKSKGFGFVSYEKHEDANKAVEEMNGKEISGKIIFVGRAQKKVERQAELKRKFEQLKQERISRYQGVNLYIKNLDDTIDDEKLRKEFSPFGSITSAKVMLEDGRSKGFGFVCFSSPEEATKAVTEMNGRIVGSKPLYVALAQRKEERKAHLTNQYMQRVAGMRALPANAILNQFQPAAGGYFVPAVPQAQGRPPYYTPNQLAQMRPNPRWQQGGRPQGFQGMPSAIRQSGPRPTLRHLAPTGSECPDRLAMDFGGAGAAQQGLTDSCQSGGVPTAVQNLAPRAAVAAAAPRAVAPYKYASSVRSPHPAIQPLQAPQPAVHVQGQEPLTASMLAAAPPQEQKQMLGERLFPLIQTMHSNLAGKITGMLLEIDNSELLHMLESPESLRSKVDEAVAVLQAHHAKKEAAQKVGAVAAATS

C[C@@H](O)[C@@H](CO)NC(=O)[C@@H](CCCNC(=N)N)NC(=O)[C@@H]1CCCN1C(=O)[C@@H]1CSSC[C@H](NC(=O)[C@H](Cc2ccccc2)NC(=O)CN2CCN(CC(=O)O)CCN(CC(=O)O)CCN(CC(=O)O)CC2)C(=O)N[C@@H](Cc2ccc(O)cc2)C(=O)N[C@@H](Cc2ccccc2)C(=O)N[C@@H](CCC(N)=O)C(=O)N[C@@H](CC(N)=O)C(=O)N1 [gallium-68 labelled]  tissue uptake (healthy Wistar rat, kidneys; intravenous, 8 MBq, 60 min, individual animals): 3.16 %ID/g
CC[C@H](C)[C@H](NC(=O)[C@H](CCC(=O)O)NC(=O)[C@H](CCCNC(=N)N)NC(=O)[C@H](CCCNC(=N)N)NC(=O)[C@H](CCCNC(=N)N)NC(=O)[C@H](CCC(N)=O)NC(=O)[C@H](CCCNC(=N)N)NC(=O)[C@H](CCCNC(=N)N)NC(=O)[C@H](CCCCN)NC(=O)[C@H](CCCCN)NC(=O)[C@H](CCCNC(=N)N)NC(=O)CNC(=O)[C@H](Cc1ccc(O)cc1)NC(C)=O)C(=O)N[C@@H](CC(=O)O)C(=O)N[C@@H](Cc1c[nH]cn1)C(=O)N[C@@H](CC(=O)O)C(N)=O  Iba1-positive microglia number (db/db mouse, hippocampal CA1; intravenous, dose not given, weekly): decreased
CO[C@H]1C[C@@H]2CC[C@@H](C)[C@@](O)(O2)C(=O)C(=O)N2CCCC[C@H]2C(=O)O[C@H]([C@H](C)C[C@@H]2CC[C@@H](OC(=O)NCCOCCOCCOCCOCCOCCOCCOCCOCCC(=O)N3CCc4cc(Cn5nc(-c6ccc7oc(N)nc7c6)c6c(N)ncnc65)ccc4C3)[C@H](OC)C2)C[C@@H](O)[C@H](C)/C=C(\C)[C@@H](O)[C@@H](OC)C(=O)[C@H](C)C[C@H](C)/C=C/C=C/C=C/1C  incidence of Nausea TRAE (patients with advanced solid tumours; intravenous, dose not given, any grade): 43.9%
CCCCC1CNC2CCc3ccc(OC)cc3C12.Cl (racemic)  differentially expressed genes count (RNA sequencing; SAMP8 mice, hippocampus; intracerebroventricular, 1.0 µg/µL, 24 h; relative to: vehicle): 316
COc1cc(Nc2ncc(F)c(Nc3ccc4c(n3)NC(=O)C(C)(C)O4)n2)cc(OC)c1OC  IC50 (Dual specificity protein phosphatase 10 (Homo sapiens, UniProt Q9Y6W6); MKP-5): > 10 µM
CC[C@H](C)[C@H](NC(=O)[C@H](Cc1ccccc1)NC(=O)[C@H](CCC(=O)O)NC(=O)[C@H](CCCNC(=N)N)NC(=O)[C@H](C)NC(=O)[C@H](C)NC(=O)[C@H](CCC(N)=O)NC(=O)[C@H](CCC(=O)O)NC(=O)[C@H](CCC(=O)O)NC(=O)[C@H](CC(C)C)NC(=O)[C@H](Cc1ccc(O)cc1)NC(=O)[C@H](CO)NC(=O)[C@H](CO)NC(=O)[C@@H](NC(=O)[C@H](CC(=O)O)NC(=O)[C@H](CO)NC(=O)[C@@H](NC(=O)[C@H](Cc1ccccc1)NC(=O)[C@@H](NC(=O)CNC(=O)[C@H](CCC(=O)O)NC(=O)[C@H](C)NC(=O)CCc1c[nH]cn1)[C@@H](C)O)[C@@H](C)O)C(C)C)C(=O)N[C@@H](C)C(=O)N[C@@H](Cc1c[nH]c2ccccc12)C(=O)N[C@@H](CC(C)C)C(=O)N[C@H](C(=O)N[C@@H](CCCNC(=N)N)C(=O)NCC(=O)N[C@@H](CCCNC(=N)N)C(=O)N[C@@H](CCCCNC(=O)COCCOCCNC(=O)COCCOCCNC(=O)CC[C@H](NC(=O)CCCCCCCCCCCCCCCCC(=O)O)C(=O)O)C(=O)NCC(=O)NCC(=O)N[C@@H](CO)C(=O)N[C@@H](CCCCNc1c(NCCCCCN(O)C(=O)CCC(=O)NCCCCCN(O)C(=O)CCC(=O)NCCCCCN(O)C(C)=O)c(=O)c1=O)C(=O)O)C(C)C [zirconium-89 labelled]  tissue uptake (ex vivo gamma counting; rat, femur; subcutaneous, 3 nmol/kg, 24 h, with: [89Zr]-labelled peptide): 0.12 %ID/g
CCCCC1(CCCC)CN(c2ccccc2)c2cc(SC)c(OCC(=O)N[C@@H](C(=O)NCC(=O)O)c3ccccc3)cc2S(=O)(=O)C1  serum LDL-C (item: LDL cholesterol; human, serum; 20 mg once daily, day 13): 74 mg/dL
C=CCNc1c(O)cc2c(O)c1C[C@@H](C)C[C@H](OC)[C@H](O)[C@@H](C)/C=C(\C)[C@H](OC(N)=O)[C@@H](OC)/C=C\C=C(/C)C(=O)N2  patients with stable disease (RECIST v1.0; human soft tissue sarcoma; concentration not given, stable at least 6 weeks): 59%
O=c1c(O)c(-c2ccc(O[C@@H]3O[C@H](CO)[C@@H](O)[C@H](O)[C@H]3O)c(O)c2)oc2cc(O)cc(O)c12  IC50 (DMPD radical scavenging): 8.15 µg/mL
C[C@H](N)Cn1ncc2ccc3c(c21)CCCO3.Cl  maximum DOM-lever responding (drug discrimination; rat trained on DOM; i.p., 0.3 mg/kg): 99%
CC[C@@H](C)[C@@H](NC(=O)[C@@H](Cc1ccc(O)cc1)NC(=O)[C@H]1CCCN1C(=O)[C@@H](CCCNC(=N)N)NC(=O)[C@H](N)Cc1c[nH]cn1)C(=O)N[C@H](C)C(=O)N[C@H](Cc1c[nH]cn1)C(=O)N[C@H](CCCNC(=N)N)C(=O)N[C@H](CCCCNC(=O)c1cccc(S(=O)(=O)F)c1)C(=O)N[C@H](Cc1ccc(O)cc1)C(=O)N[C@H](CO)C(=O)N[C@H](Cc1ccccc1)C(N)=O  IFN-γ+ CD8+ T cell frequency (ex vivo flow cytometry; GL261-Luc brain tumour mice, spleen; dose not given): 11.8% and 18% and 3.68% and 7.33%
COc1cc(CCC[P+](c2ccccc2)(c2ccccc2)c2ccccc2)c(OC)c2c1OCO2.[I-]  TGI (SF-539; SRB): -4.9 log M
COc1cc2c(Oc3ccc4[nH]c(C)cc4c3F)ccnc2cc1OCC1(N)CC1  sinus arrhythmia incidence (paediatric refractory sarcoma patients; 10 mg): 0%
COc1c(CCC[P+](c2ccccc2)(c2ccccc2)c2ccccc2)cc2c(c1OC)OCO2.[I-]  TGI (RPMI-8226; SRB): -5.77 log M
Cc1cn(-c2cc(NC(=O)c3ccc(C)c(Nc4nccc(-c5cccnc5)n4)c3)cc(C(F)(F)F)c2)cn1  ADAS-Cog score (Homo sapiens; 150 mg, 6 months; direction not given): 32.1 ± 9.1
C[C@H]1CN(c2n[nH]c3nc(N[C@H]4CC[C@H](NS(=O)(=O)CCC(F)(F)F)CC4)ncc23)CCO1  remaining binding (Polyadenylate-binding protein 4 (Homo sapiens, UniProt Q13310); Kinobeads competition, item: PABPC4; 0.032 µM, unit not given; relative to: vehicle): 1.06
FC(F)(F)c1ccc2c(c1)[C@@H]1CNC[C@H]2C1  ethanol preference (intermittent two-bottle choice; Wistar rat, 20% ethanol drinking; subcutaneous, 5 mg/kg, 6 h; relative to: ethanol over total fluid intake): 38 ± 3%
COc1ccc2c(c1)CC[C@@H]1[C@@H]2CC[C@]2(C)[C@@H](NCCCCCCN3C(=O)C=CC3=O)CC[C@@H]12  inhibition (calcium response, activation phase; N2a, mouse; 1 µM, with: ATP 300 µM): 58%
CC1=C(O)C(=O)C=C2C1=CC=C1[C@@]2(C)CC[C@@]2(C)[C@@H]3C[C@](C)(C(=O)O)CC[C@]3(C)CC[C@]12C  liver histology (item: inflammation, fibrosis, lipid accumulation; rat, GAN diet-induced MASH, liver; dose not given, 3 weeks daily; relative to: vehicle): decreased
COc1ccc(N2C(=O)N(c3c(C)cccc3Cl)Cc3cnc(Nc4ccc(C5CCN(C)CC5)cc4OC)nc32)nc1  inhibition (PBK (Homo sapiens, UniProt Q96KB5); kinase activity; 0.5 µM): 1%
NNc1ccccc1  normalised absorbance (hydrazine ligation kinetics, absorbance; concentration not given, 25 s, with: 2-formylphenylboronic acid): 0.882
CN1CCN(S(=O)(=O)c2cc([N+](=O)[O-])ccc2N(CCOS(C)(=O)=O)CCOS(C)(=O)=O)CC1  event-free survival (NSG mice, sample BG PDX; intraperitoneal, 25 mg/kg weekly x3): 269 days
C[C@H]1O[C@@H](O[C@H]2CC[C@@]3(C)[C@@H](CC[C@]4(C)[C@@H]3C=C[C@]35OC[C@@]6(CCC(C)(C)C[C@H]63)[C@@H](O)C[C@]54C)[C@]2(C)CO)[C@H](O)[C@@H](O[C@@H]2O[C@H](CO)[C@@H](O)[C@H](O)[C@H]2O)[C@H]1O  steatosis area (H&E staining; AAV8-null control mice, no ethanol, liver; dose not given, high dose): 5.08% and 6.32% and 5.52% and 5.93% and 3.91% and 6.26% and 4.8% and 4.71%
CC[C@H](C)[C@@H]1NC(=O)[C@@H]2CCCN2C(=O)[C@H](CC(C)C)NC(=O)[C@H](CC(C)C)NC(=O)CNC(=O)[C@@H](NC(=O)[C@@H](NC(=O)[C@H](CC(=O)O)NC(=O)CNC(=O)[C@@H](NC(=O)[C@H](C)NC(=O)CNC(=O)[C@H](CCCCN)NC(=O)[C@H](CC(C)C)NC(=O)[C@H](CC(C)C)NC(=O)[C@H](CCCCN)NC(=O)CNC(=O)[C@@H](NC(=O)[C@@H](N)CC(C)C)C(C)C)C(C)C)C(C)C)CSSC[C@@H](C(=O)O)NC1=O  log2 fold change (RNA-seq, item: Tbc1d10c mRNA; mouse traumatic brain injury, frontal cortex and hippocampus; dose not given; relative to: TBI plus compound vs TBI): -2.64
O=S(=O)(F)Oc1cc(C(F)(F)F)cc(C(F)(F)F)c1  pseudo-first-order rate constant (HPLC-MS; pH 10.2, with: 50 mM N-α-acetyl-lysine): 1.4 h⁻¹
Cc1nc(Nc2ccc(CC(=O)O)cc2)nc(Nc2ccc(F)c(C(F)(F)F)c2)c1C  fasting blood glucose (C57BL/6J mice, high-fat diet; intraperitoneal, 0.3 mg/kg daily, 60% fat diet 12 weeks, dosed last four; relative to: vehicle): decreased
C[C@]1(CO)Cc2ncn(-c3ccc(C#N)c(Cl)c3)c2C(=O)O1  urinary excretion (aldosterone synthesis, inhibitor, item: sodium; healthy Japanese adults, urine; 40 mg, 0-24 h at steady state, multiple rising dose): 127 mmol
C[C@H]1O[C@H](O[C@H]2CC[C@H](n3ccc(NC(=O)c4ccc(NC(=O)[C@@](C)(N)CO)cc4)nc3=O)O[C@@H]2C)[C@H](O)[C@@H](O)[C@@H]1N(C)C  IC50 (translation; rabbit reticulocyte lysate): 20.3 ± 5.16 µM
CNC(=O)CC1C(=O)N(C2CCN(C3CCC(C(C)C)CC3)CC2)c2ccccc21 (stereo not drawn)  heart rate (conscious Sprague-Dawley rat; intravenous bolus, 100 nmol/kg): decreased
Oc1ccc2c3c1O[C@H]1[C@@H](O)CC[C@@]4(O)[C@@H](C2)N(CC2CCC2)CC[C@]314  log2 fold change (Opsin-3 (OPN3, Homo sapiens, UniProt Q9H1Y3); β-arrestin recruitment, TANGO luminescence, item: OPN3; concentration not given; relative to: basal luminescence): 0.068

Some of these lines once more:
CCCCC1CNC2CCc3ccc(OC)cc3C12.Cl (racemic)  differentially expressed genes count (RNA sequencing; SAMP8 mice, hippocampus; intracerebroventricular, 1.0 µg/µL, 24 h; relative to: vehicle): 316
COc1ccc(N2C(=O)N(c3c(C)cccc3Cl)Cc3cnc(Nc4ccc(C5CCN(C)CC5)cc4OC)nc32)nc1  inhibition (PBK (Homo sapiens, UniProt Q96KB5); kinase activity; 0.5 µM): 1%
